Experimental data gathered from unrelated publications.
Numbered parts are unrelated; each lists some results of a single study. Several values in a cell are separate wells, animals, samples, runs or records.
Chain of UniProt P10721 (whole entry, unmodified, looked up): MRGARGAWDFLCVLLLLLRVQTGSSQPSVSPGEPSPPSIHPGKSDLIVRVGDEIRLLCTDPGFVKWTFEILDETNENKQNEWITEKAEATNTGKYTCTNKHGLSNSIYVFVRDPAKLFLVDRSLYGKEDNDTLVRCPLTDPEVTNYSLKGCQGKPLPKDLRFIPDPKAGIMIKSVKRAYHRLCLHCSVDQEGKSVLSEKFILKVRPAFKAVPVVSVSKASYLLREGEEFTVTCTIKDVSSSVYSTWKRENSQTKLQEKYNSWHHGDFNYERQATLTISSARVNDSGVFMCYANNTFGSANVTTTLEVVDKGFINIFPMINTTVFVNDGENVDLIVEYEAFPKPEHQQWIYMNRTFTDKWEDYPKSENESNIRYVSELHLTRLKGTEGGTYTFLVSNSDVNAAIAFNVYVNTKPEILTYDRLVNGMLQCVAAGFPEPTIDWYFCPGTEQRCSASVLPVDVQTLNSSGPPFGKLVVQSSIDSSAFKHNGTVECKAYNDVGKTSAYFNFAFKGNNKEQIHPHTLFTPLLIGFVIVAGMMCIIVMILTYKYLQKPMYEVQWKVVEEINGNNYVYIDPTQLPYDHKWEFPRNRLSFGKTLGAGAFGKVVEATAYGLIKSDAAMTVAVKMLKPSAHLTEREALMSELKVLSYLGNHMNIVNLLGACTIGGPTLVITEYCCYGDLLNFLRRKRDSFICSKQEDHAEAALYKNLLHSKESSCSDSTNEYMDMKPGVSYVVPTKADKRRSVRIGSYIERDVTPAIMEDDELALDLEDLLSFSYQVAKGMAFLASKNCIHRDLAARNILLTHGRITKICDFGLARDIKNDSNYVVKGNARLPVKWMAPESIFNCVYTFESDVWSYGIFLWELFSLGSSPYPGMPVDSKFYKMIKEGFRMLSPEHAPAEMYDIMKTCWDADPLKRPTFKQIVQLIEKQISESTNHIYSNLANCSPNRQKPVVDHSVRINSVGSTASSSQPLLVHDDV
Chain of UniProt Q96D53 (whole entry, looked up): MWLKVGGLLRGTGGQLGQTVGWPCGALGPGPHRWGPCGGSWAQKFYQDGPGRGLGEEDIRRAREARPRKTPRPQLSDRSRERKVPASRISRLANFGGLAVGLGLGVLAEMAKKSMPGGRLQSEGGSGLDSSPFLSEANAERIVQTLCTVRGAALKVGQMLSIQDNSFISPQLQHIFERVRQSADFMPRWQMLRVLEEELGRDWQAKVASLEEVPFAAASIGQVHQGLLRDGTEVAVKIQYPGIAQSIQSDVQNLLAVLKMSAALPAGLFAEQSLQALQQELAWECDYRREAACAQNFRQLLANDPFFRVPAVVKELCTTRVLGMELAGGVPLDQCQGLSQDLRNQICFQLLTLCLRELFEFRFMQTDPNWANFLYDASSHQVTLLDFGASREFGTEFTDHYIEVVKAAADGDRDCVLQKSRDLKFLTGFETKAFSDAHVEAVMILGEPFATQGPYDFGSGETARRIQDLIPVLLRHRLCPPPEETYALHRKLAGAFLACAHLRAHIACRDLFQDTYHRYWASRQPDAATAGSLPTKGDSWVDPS
Chain of UniProt Q8WU08 (whole entry, looked up): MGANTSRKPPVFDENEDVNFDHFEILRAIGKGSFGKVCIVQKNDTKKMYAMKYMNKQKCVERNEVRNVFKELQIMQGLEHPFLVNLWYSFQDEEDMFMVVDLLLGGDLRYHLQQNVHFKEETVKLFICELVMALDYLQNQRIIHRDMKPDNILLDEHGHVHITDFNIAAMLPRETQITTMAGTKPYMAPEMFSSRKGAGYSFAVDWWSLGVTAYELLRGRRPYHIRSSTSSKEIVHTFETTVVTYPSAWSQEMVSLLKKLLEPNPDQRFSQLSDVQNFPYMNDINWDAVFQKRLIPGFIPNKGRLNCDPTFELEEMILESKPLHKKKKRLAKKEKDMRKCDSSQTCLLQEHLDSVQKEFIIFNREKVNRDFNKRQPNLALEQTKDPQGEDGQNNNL

Study 1
Compound: CN(C)C(=O)Cn1cc(-c2ccc(-c3nnc4ccccn34)cc2)cn1
Concentration: 1 µM
Relative to: DMSO
sample C colorectal tumour organoid; replicate 2 — viability: 110%.
It gave 151% for viability (sample BA colorectal tumour organoid).
For colorectal tumour organoids: viability read 113%.
sample B colorectal tumour organoid; replicate 1 — viability: 114%.
sample C colorectal tumour organoid; replicate 1 — viability: 89.9%.
It gave 106% for viability (sample B colorectal tumour organoid; replicate 2).

Study 2
Structure (SMILES): C=CC(=O)N1CCC([C@@H]2CCNc3c(C(N)=O)c(-c4ccc(Oc5ccccc5)cc4)nn32)CC1
Concentration: 1 µM
The inhibition was 0% (Ribosomal protein S6 kinase alpha-3, C-terminal kinase domain (RPS6KA3, Homo sapiens, UniProt P51812); inhibitor).
For Mast/stem cell growth factor receptor Kit (KIT, Homo sapiens, UniProt P10721, T670I/V559D); enzyme activity, inhibitor: inhibition read 7%.
The inhibition was 0% (Serine/threonine-protein kinase 32A (STK32A, Homo sapiens, UniProt Q8WU08); cell-free assay).
For Atypical kinase COQ8B, mitochondrial (COQ8B, Homo sapiens, UniProt Q96D53); enzyme activity, inhibitor: inhibition read 0%.
For Serine/threonine-protein kinase WNK1 (WNK1, Homo sapiens, UniProt Q9H4A3); enzyme activity, inhibitor: inhibition read 7%.

Study 3
Target: Tyrosine-protein kinase Yes (YES1, Homo sapiens, UniProt P07947)
Chain of UniProt P07947 (whole entry, looked up): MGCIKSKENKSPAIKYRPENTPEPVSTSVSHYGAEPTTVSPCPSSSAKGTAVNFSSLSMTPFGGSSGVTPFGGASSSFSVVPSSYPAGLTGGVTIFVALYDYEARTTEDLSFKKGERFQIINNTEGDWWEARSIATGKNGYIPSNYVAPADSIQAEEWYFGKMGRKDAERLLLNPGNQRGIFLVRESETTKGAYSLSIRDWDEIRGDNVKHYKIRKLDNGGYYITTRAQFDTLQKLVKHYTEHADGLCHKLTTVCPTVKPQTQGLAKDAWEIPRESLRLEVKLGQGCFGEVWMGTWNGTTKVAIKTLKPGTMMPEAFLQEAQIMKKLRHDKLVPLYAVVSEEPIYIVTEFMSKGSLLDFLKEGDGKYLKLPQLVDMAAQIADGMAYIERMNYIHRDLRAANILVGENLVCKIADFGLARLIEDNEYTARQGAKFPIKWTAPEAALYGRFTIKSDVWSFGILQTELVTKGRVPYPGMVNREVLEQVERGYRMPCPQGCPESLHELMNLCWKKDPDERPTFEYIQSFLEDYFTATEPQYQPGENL
Observed: enzyme activity
Mode: inhibitor
Concentration: 0.5 µM
Relative to: control
The remaining activity of O=C1c2ccccc2-c2nc3nnnn3nc21 is reported as 89.2%.
For c1cc(-c2cnn3cc(-c4ccc(OCCN5CCCCC5)cc4)cnc23)ccn1, the remaining activity was 15.9%.
For O=c1c(-c2ccc(F)cc2)c(-c2ccncc2)[nH]n1-c1ccc(Cl)cc1, the remaining activity was 85.1%.
O=C(c1ccccc1)c1ccc(N2CCOCC2)cc1O gave a remaining activity of 103%.
The remaining activity of O=Nc1c(-c2c(O)[nH]c3ccccc23)[nH]c2ccccc12 is reported as 45.1%.
O=C1NC(=O)/C(=C/c2ccc3c(c2)OC(F)(F)O3)S1 gave a remaining activity of 87.9%.
The remaining activity of COc1cc2c(Nc3ccc(Br)cc3F)ncnc2cc1OCC1CCN(C)CC1 is reported as 11.3%.
Nc1nc(Nc2ccc(S(N)(=O)=O)cc2)nn1C(=S)Nc1c(F)cccc1F has a remaining activity of 10.5%.
CC(C)N(CCC(=O)c1ccc2ccccc2c1)Cc1ccccc1 has a remaining activity of 100%.

Study 4
Target: DNA polymerase theta, ATPase domain (POLQ, Homo sapiens, UniProt O75417)
Chain of UniProt O75417 (whole entry, unmodified, looked up): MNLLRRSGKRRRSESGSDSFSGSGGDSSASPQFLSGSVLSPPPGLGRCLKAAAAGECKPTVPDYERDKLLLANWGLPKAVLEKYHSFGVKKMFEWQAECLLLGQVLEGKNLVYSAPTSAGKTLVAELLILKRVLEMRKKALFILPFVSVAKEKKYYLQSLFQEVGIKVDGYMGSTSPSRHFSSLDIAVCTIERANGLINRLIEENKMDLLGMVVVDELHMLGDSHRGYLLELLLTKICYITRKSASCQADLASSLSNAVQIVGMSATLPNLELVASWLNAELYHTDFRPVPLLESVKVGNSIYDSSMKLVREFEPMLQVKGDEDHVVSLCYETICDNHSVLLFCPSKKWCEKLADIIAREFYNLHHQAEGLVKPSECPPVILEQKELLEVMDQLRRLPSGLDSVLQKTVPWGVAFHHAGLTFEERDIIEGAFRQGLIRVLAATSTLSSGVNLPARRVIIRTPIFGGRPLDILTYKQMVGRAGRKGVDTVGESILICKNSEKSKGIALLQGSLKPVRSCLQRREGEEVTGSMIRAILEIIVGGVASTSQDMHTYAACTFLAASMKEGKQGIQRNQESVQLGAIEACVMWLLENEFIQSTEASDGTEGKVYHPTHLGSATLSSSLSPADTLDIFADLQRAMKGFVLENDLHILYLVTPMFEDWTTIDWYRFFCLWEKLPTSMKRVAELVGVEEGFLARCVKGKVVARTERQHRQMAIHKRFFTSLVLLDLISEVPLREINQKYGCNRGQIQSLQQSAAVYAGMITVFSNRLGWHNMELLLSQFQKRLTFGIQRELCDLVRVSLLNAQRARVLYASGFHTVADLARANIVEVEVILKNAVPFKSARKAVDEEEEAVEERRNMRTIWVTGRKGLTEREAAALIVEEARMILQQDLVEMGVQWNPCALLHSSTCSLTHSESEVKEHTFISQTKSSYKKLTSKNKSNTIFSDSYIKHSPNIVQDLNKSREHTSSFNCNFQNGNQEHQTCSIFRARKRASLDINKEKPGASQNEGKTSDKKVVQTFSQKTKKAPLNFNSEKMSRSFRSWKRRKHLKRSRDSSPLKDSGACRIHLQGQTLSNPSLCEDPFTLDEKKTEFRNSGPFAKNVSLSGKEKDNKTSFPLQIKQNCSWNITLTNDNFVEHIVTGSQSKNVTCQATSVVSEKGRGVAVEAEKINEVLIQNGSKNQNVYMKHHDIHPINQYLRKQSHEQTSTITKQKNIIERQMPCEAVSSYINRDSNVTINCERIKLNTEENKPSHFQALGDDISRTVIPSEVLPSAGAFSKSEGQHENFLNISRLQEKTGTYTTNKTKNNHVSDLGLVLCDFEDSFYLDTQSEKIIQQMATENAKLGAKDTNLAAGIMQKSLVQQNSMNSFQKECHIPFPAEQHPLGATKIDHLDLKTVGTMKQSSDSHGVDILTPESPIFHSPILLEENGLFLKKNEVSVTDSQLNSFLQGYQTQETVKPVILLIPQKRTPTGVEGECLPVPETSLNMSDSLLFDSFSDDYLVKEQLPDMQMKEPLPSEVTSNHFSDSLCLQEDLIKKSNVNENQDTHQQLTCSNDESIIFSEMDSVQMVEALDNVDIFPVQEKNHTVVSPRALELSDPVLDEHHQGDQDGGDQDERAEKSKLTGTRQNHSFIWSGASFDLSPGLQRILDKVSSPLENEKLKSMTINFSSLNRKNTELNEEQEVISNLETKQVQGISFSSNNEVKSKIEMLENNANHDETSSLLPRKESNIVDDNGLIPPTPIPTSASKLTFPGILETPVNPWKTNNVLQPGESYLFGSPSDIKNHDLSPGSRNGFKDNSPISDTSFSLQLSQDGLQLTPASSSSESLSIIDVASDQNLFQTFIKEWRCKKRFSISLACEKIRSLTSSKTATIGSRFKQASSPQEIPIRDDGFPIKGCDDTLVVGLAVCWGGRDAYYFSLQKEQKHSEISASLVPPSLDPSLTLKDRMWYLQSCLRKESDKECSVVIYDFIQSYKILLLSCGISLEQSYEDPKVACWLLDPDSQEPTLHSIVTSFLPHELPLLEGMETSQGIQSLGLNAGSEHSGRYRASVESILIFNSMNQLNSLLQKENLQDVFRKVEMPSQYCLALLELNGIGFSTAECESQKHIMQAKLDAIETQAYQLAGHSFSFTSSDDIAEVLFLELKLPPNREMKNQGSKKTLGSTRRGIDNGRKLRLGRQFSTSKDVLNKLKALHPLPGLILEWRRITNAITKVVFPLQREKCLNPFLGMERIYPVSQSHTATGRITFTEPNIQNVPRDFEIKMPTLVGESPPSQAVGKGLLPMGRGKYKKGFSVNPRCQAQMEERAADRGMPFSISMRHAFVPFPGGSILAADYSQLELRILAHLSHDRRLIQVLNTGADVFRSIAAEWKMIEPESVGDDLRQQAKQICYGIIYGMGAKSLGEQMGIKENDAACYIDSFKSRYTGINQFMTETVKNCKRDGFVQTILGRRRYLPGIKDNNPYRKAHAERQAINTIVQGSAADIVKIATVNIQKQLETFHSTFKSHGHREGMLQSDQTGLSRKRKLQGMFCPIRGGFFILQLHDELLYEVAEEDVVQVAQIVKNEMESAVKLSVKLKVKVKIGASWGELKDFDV
Observed: enzyme activity
Mode: inhibitor
Concentration: 77 µM
Relative to: untreated
The remaining activity of O=C(O[C@H]1C[C@H]2CC[C@@H](C1)[N+]21CCCC1)C(O)(c1ccccc1)c1ccccc1 is reported as 101%.
NC(=O)c1cccc(N)c1 has a remaining activity of 91.5% and 81.9%.
The remaining activity of CC(=O)N(CC(O)CO)c1c(I)c(C(=O)NCC(O)CO)c(I)c(C(=O)NCC(O)CO)c1I (mixture of isomers) is reported as 99%.
For CN1CCN(C2CCN(C(=O)Nc3cc(Oc4ccc(NC(=O)C5(C(=O)Nc6ccc(F)cc6)CC5)c(F)c4)ccn3)CC2)CC1, the remaining activity was 101%.
CC1=CC(=O)C2=C(C)CC[C@@H]3[C@H](OC(=O)[C@H]3C)[C@@H]12 has a remaining activity of 101%.
CCOC(=O)C(C)(C)Oc1ccc(Cl)cc1 gave a remaining activity of 99.4%.

For quick reference, copied from above (study 3):
For c1cc(-c2cnn3cc(-c4ccc(OCCN5CCCCC5)cc4)cnc23)ccn1, the remaining activity was 15.9%.
